Results collected from several papers.
Each numbered part is a random draw from the data of one study; scales do not carry over between parts. Changes are numbered by the printed parent chain.

Series 1 — method: RNA Bind-n-Seq; molecule type: RNA; sample: in vitro; tested at: not given; setting: RNA with constant flanks, ends assumed; reference: input RNA pool; reading: higher = stronger binding
Target: RING finger protein unkempt homolog, zinc fingers 1-6, GST-SBP tag (UNK, Homo sapiens, UniProt Q9C0B0, residues 30-357)
All sequences stand within: GGGAGUUCUACAGUCCGACGAUC … CAACAGAGGAUUGAGCAUCA
Construct (chain): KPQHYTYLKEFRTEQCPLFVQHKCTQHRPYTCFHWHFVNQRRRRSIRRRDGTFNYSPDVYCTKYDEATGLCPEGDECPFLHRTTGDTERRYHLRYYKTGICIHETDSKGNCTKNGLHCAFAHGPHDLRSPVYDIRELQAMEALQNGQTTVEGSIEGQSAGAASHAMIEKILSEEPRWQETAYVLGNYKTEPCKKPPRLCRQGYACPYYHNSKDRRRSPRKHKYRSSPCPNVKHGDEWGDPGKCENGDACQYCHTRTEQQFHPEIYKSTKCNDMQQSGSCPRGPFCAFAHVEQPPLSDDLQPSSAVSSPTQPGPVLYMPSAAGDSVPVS
`UAGCUUGAGCUUUCUUUUUGGCCAUCUUUUAAAACUUUUUUUUUUUUUUUUGAUCUAUAAAACCGACAAGAGAUAGUUCUACAAUGUCCAAGUCAUUCCAGCAGUCAUCUCUCGGUAGGG` has a bound/input enrichment of 2.06 ratio.
`UAUUUUUACAGCCACACAAUUCUUGGCAUGUAUUAAGAAAAAAAAAAAUCCCUGUUCAAGCCGUUUUUCCACCUAUCAGCACUGAGUAAAUGCCAUAAAUCCAUUGAAAUGGUCUAAAUG` gave a bound/input enrichment of 0.292 ratio.
The bound/input enrichment of `CGCCGUGGUGGCCGUUAAACGGUCUCAGAGCGGAGCUAUCGGUUGUCUGCGGCCGCCGUGAGCUUUGCUUCGUUUCCUGAAGAUGGAGGGUCCUUUGUCCGUGUUCGGGGACCGCAGCAC` is reported as 0.0798 ratio.
For `CUGGCAUCUGUGAAGAUUUCUAAAGUGAAAUACGUUAUCUGGUCAGCAGACAUGUCACAUGCCGCACUACUAGCCAAACACGCCAUUGUGAUCUGUAACCGCAAACUGGAUGCUUUAUGU`, the bound/input enrichment was 0.137 ratio.
`GGUGGGGUGGUCAUUGCCGUUUGAGCUGCUGAUUUUCAUGAGUCGCCUUCAAAACUCUCGUGCCGGGUUGACAAUGUGGGGGGGUGGGGGAUCCAGCUUAUUCUUUUAUUUUCAAGUCCA` gave a bound/input enrichment of 0.479 ratio.
For `GUAUUAAGUUCUUCUCCUGCUGAUAAAUUGGAUUCUCGAUUUAGGAAGGGAAAUUUUGGCACCCGAGAUGCUGAAACAGAUGGACCUGAGAAAGGAGAUCAAAAAGGCAAGGCUUCUCCA`, the bound/input enrichment was 0.328 ratio.
With `GAGCCUUCUGAGGACAUUCCAAGACAGUAUACAGUCCUGUGGUCUCCUUGGAAAUCCGUCCCGUUAACAUUUCAAGGGCAAUACCGUGUUGGUUUUGACUGGAUAUUCAUAUAAACUUUU` the bound/input enrichment was 0.273 ratio.
`GAGAAGGAAUGGAAACUAGGCCGGUGCAUUUUACGGUUCCCUGAGAUUCUGCAAAAGAUUUCCGAUGACUUAUUUCUCCACACUCUCUGUGAUUAUAUAUAUGAGCUGGCAACUGCUUUC` gave a bound/input enrichment of 0.232 ratio.

Series 2 — target: CCNE2, cyclin fold, Cln2 fusion (human); method: yeast growth competition, sequencing; sample: yeast; setting: weak parent motif; reference: not given; reading: higher = stronger binding
Starting sequence: MASTL docking peptide (human); PMIAKNLMCELDE
For `D12W`, “normalised enrichment score” read 0.0788.
`E10V` — result for “normalised enrichment score”: 0.299.
For `C9L`, “normalised enrichment score” read -0.143.
For `K5S`, “normalised enrichment score” read -0.413.
`M2Q`: “normalised enrichment score” 0.0504.
`E10T`: “normalised enrichment score” 0.0417.
For `D12N`, “normalised enrichment score” read -0.168.
`M8A`: “normalised enrichment score” -0.165.
`K5P`: “normalised enrichment score” 0.0298.
For `I3L`, “normalised enrichment score” read -0.0481.
For `E10R`, “normalised enrichment score” read 0.165.
`L11Y`: “normalised enrichment score” 0.0418.
Under “normalised enrichment score”, `E10W` is recorded as 0.158.
`C9F`: “normalised enrichment score” 0.397.
`L7N` — result for “normalised enrichment score”: 0.0211.

Series 3 — method: RNA Bind-n-Seq; molecule type: RNA; sample: in vitro; tested at: 365 nM; reference: no-protein control; reading: higher = stronger binding
Target: RNA binding protein fox-1 homolog 2, RRM domain, GST-SBP tag (RBFOX2, Homo sapiens, UniProt O43251-10, residues 100-194)
Setting: natural RNA segment, single round, ends assumed
All sequences stand within: GGGAGUUCUACAGUCCGACGAUC … UGGAAUUCUCGGGUGCCAA
Construct (chain): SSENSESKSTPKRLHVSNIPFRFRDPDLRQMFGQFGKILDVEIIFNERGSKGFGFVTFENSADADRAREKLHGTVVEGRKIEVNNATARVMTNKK
Under “RBNS enrichment (R)”, `GCUGUGUGAGAGCUGCAUGUGAGCCUGUGACCGUGAGCUGGGGUGAGCUGGGCCGCACCUACCCUGGGGCCCCAGGGAGCAGGACGCUCCGGGGCCCAGCACGUUGCCCU` is recorded as 20.5.
Under “RBNS enrichment (R)”, `GGUAAUGAGCCCCAGCAACUGUCCUCAGCCCCUCUUCCCCUCAUUUGUUCCUUCUGUCCUUCCAACACAGAGACUGUUAGAGAUGAAAGUUUGGACGGUACUAAAGUCAC` is recorded as 0.664.
`CUAAAUUAACAGUGGAAAAUACUUUUCUGUAAACAGCCAGGGUAAUAAAAACCAUGAACUAAUUGUAUUUUAUCUAUUUGGUUCAUCCUGCAAUAGCGGAAUUAUACAUA` — result for “RBNS enrichment (R)”: 0.397.
Under “RBNS enrichment (R)”, `AGUGUUUAAACGCAACAAAAGGCUACAUUUCCAUGGGGCCAGCACUGUCAUGAGCCUCACUAAGCUAUUUUGAAGAUUUUUAAGCACUGAUAAAUUAAAAAAAAAAAAUU` is recorded as 0.804.
`GUUGUUCUUUUGCAGCACUCACGCCUCUGACAGUCUUUUGGGAAAGAGUAACACCCACAUACAGAAUUUGUCACAUCCAGAGUAGCACUGUUCCUUAAUACUGGCAUAAU`: “RBNS enrichment (R)” 0.732.
For `AUGCCUGUUAGACCUUAGCUGUGGGGUUCCUUUACUAUUGGGUGAAUCAUUAGGUAUAAAAAAUAAUCAUCAACCAGGCAAAUUACUUUGCUUCCUAGCUGAUGUCAUCC`, “RBNS enrichment (R)” read 2.1.
Under “RBNS enrichment (R)”, `CGUUCCCAAGGGAGGGGCCUCUGAGGUCCUUCUGCCUUGUUGAUGAAGAGUGGUUGGUUGUAGAGCCCCCACCUUCAGAACUGCCUGGCCCAGCUGGAAACCCAGAGUCU` is recorded as 0.282.
Under “RBNS enrichment (R)”, `AGACUCCUGUCUUUUACCCUCCCCUCGUUCCAGACCUGCCUCAUGGUGGCAACAUGGUUCUUGAACAAUUAAAGAAACAAAUGACUUUUUGGAAUAGCCCUGUCUAGGGC` is recorded as 0.467.
For `GUUUGGUAUUUUUGCAUUAUGACAGUUGUUGAGACUAGGAUUUUAAGCUAGGAUAUGAUUAUAUUUCCUAUAUAACUAAAAAUUUUGUUUCAUAAAUUUUAAAAUAAUUA`, “RBNS enrichment (R)” read 1.92.
`CCUUCCGCAGCUCCUAGUCUCGUCCGUGACUUUCCGGUUGCCCUGGAUCUCAGAAUAUAUUCGUCCACCCCCUCGGCACCCCAUUACCCCGAGUCCCACCGUGUGUCCGU` — result for “RBNS enrichment (R)”: 0.202.
`UGGCCUCAUCUGGACCCUUCCUGUUAUUAAUAAAACGCUUCUGGAGGCCAGAUCUGUGCUCAAGCCAUAGUUCUGCUUAGAAAGGGAUGCCCCACCCUUACCGGACACUG` — result for “RBNS enrichment (R)”: 0.735.
`ACACACACAAGUAAGAGACUCAGCCUGCAGUUAAUUAGCAUUCUGGCAGUUUUGACAUCAGCCAGCUGCCCUAAAUAACCCUUCAACGUUUCUUCACUUUUGCAAGGUUC` — result for “RBNS enrichment (R)”: 0.614.

Series 4 — method: universal PBM; molecule type: double-stranded DNA, one strand shown; sample: in vitro; tested at: not given; reading: higher = stronger binding
Target: Sal-like protein 4, full length isoform B (SALL4, Homo sapiens, UniProt Q9UJQ4-2, residues 1-616)
Setting: 8-mer, flanks averaged, mean of replicates
Construct (chain): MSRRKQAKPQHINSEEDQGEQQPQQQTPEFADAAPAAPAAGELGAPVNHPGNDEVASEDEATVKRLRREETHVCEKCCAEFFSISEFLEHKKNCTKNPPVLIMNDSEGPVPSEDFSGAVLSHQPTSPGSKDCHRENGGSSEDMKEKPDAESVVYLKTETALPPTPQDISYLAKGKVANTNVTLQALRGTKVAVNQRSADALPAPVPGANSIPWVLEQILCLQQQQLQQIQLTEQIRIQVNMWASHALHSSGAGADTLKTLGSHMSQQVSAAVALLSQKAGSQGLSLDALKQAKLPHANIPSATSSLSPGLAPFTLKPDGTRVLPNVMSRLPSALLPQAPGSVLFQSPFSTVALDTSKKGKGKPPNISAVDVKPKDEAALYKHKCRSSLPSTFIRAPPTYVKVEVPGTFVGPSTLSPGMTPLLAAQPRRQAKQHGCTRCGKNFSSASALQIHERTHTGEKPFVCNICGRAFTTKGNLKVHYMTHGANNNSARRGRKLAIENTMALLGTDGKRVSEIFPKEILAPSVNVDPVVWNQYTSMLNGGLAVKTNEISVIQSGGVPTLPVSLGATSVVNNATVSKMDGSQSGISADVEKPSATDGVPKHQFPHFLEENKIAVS
`CGCTCAGC` gave an E-score of -0.247.
`ATACAAGA` has an E-score of 0.241.
`CGACCAAA` has an E-score of 0.0051.
With `CAATCGAG` the E-score was -0.267.
With `AATCGTGA` the E-score was 0.1.
For `CCGTGGGC`, the E-score was -0.273.
For `CCCAGTCG`, the E-score was -0.333.
For `GGACTTAC`, the E-score was 0.00124.
For `CGCCAGCA`, the E-score was -0.192.
With `AGATGCGG` the E-score was -0.122.
`AGGCGCGA` has an E-score of -0.183.
`TATCACCA` gave an E-score of 0.153.
`CAATTCCC` gave an E-score of 0.012.
`AAACGGAC` has an E-score of -0.0739.
`AAAGTGTA` gave an E-score of 0.241.
For `CAACTATG`, the E-score was 0.166.
`AGCCGCAA` has an E-score of -0.231.
`CCGCCGCC` has an E-score of -0.375.
`AAAACTCG` gave an E-score of 0.074.
`AGAGCAGA` gave an E-score of 0.108.
With `CCTGGACC` the E-score was -0.236.
With `AAAGCCGA` the E-score was -0.173.
For `CAACCAAG`, the E-score was -0.0737.
The E-score of `GGCCATAA` is reported as 0.0833.
With `AAGATTTG` the E-score was 0.104.

Mixed results
`PhoQ, residues 284 288 289 292 302 303 GNNTDL` gave a fold induction of 6.77 (PhoP, residues 12 14 15 18 19 AQALL (Escherichia coli, UniProt P23836); Sort-seq, item: YFP reporter; E. coli; PhoQ-PhoP variant library, with: 10 µM Mg2+; reference: high Mg2+ state, higher = stronger signaling).

A few entries again (series 1):
`GAGAAGGAAUGGAAACUAGGCCGGUGCAUUUUACGGUUCCCUGAGAUUCUGCAAAAGAUUUCCGAUGACUUAUUUCUCCACACUCUCUGUGAUUAUAUAUAUGAGCUGGCAACUGCUUUC` gave a bound/input enrichment of 0.232 ratio.
`UAGCUUGAGCUUUCUUUUUGGCCAUCUUUUAAAACUUUUUUUUUUUUUUUUGAUCUAUAAAACCGACAAGAGAUAGUUCUACAAUGUCCAAGUCAUUCCAGCAGUCAUCUCUCGGUAGGG` has a bound/input enrichment of 2.06 ratio.
The bound/input enrichment of `CGCCGUGGUGGCCGUUAAACGGUCUCAGAGCGGAGCUAUCGGUUGUCUGCGGCCGCCGUGAGCUUUGCUUCGUUUCCUGAAGAUGGAGGGUCCUUUGUCCGUGUUCGGGGACCGCAGCAC` is reported as 0.0798 ratio.
For `CUGGCAUCUGUGAAGAUUUCUAAAGUGAAAUACGUUAUCUGGUCAGCAGACAUGUCACAUGCCGCACUACUAGCCAAACACGCCAUUGUGAUCUGUAACCGCAAACUGGAUGCUUUAUGU`, the bound/input enrichment was 0.137 ratio.
`GGUGGGGUGGUCAUUGCCGUUUGAGCUGCUGAUUUUCAUGAGUCGCCUUCAAAACUCUCGUGCCGGGUUGACAAUGUGGGGGGGUGGGGGAUCCAGCUUAUUCUUUUAUUUUCAAGUCCA` gave a bound/input enrichment of 0.479 ratio.
With `GAGCCUUCUGAGGACAUUCCAAGACAGUAUACAGUCCUGUGGUCUCCUUGGAAAUCCGUCCCGUUAACAUUUCAAGGGCAAUACCGUGUUGGUUUUGACUGGAUAUUCAUAUAAACUUUU` the bound/input enrichment was 0.273 ratio.
`UAUUUUUACAGCCACACAAUUCUUGGCAUGUAUUAAGAAAAAAAAAAAUCCCUGUUCAAGCCGUUUUUCCACCUAUCAGCACUGAGUAAAUGCCAUAAAUCCAUUGAAAUGGUCUAAAUG` gave a bound/input enrichment of 0.292 ratio.
For `GUAUUAAGUUCUUCUCCUGCUGAUAAAUUGGAUUCUCGAUUUAGGAAGGGAAAUUUUGGCACCCGAGAUGCUGAAACAGAUGGACCUGAGAAAGGAGAUCAAAAAGGCAAGGCUUCUCCA`, the bound/input enrichment was 0.328 ratio.
